{"data": "Literature values that unrelated publications cite", "note": "± marks the error that the study gave."}
{"SMILES": "Nc1cc(C(F)(F)F)c(-c2nc(N3CCOCC3)nc(N3CCOCC3)n2)cn1", "tested on": "NCI-H460", "quantity": "GI50", "result": "477 nM"}
{"SMILES": "COc1cc2ncnc(Nc3ccc(F)c(Cl)c3)c2cc1OCCCN1CCOCC1", "tested on": "NCI60 panel", "conditions": "mean over panel", "quantity": "GI50", "result": "3200 nM"}
{"SMILES": "Cn1ncc(Cl)c1-c1cc(C(=O)N[C@H](CN)Cc2ccc(F)c(F)c2)oc1Cl", "tested on": "T98G", "quantity": "IC50", "result": "23900 nM"}
{"SMILES": "O=C1CCC(N2C(=O)c3ccccc3C2=O)C(=O)N1 (centres unmarked)", "tested on": "MM1.S", "assay": "cell proliferation", "conditions": "100 µM", "quantity": "inhibition", "result": "15%"}
{"SMILES": "NC1(c2ccc(-c3nc4ccn5c(=O)[nH]nc5c4cc3-c3ccccc3)cc2)CCC1", "tested on": "A 172", "quantity": "IC50", "result": "46200 nM"}
{"SMILES": "Cc1c(C#N)cccc1[C@@H](C)Nc1nnc(C)c2cnc(N3CCOCC3)cc12", "tested on": "HCC1438", "assay": "cell viability, 3D CellTiter-Glo", "conditions": "14 days", "quantity": "IC50", "result": "176 ± 141 nM"}
{"SMILES": "CNC(C)C1CCC(N)C(OC2C(N)CC(N)C(OC3OCC(C)(O)C(NC)C3O)C2O)O1 (centres unmarked)", "tested on": "Klebsiella pneumoniae", "system": "clinical isolate RKI-No_19/16", "quantity": "MIC", "result": "> 8 µg/mL"}
{"SMILES": "O=C(Nc1cccc2c(=O)cc(-c3nnn[nH]3)oc12)c1ccc(OCCCCc2ccccc2)cc1", "tested on": "HEK293", "assay": "VRAC current, inhibitor", "conditions": "hypotonic swelling-activated", "quantity": "maximal inhibition", "result": "~50%"}
{"SMILES": "CC(=O)c1c(C)c2cnc(Nc3ccc(N4CCNCC4)cn3)nc2n(C2CCCC2)c1=O", "tested on": "T98G", "quantity": "IC50", "result": "62900 nM"}
{"SMILES": "C[C@@H](O)[C@H](NC(=O)[C@@H]1CSSC[C@H](NC(=O)[C@@H](Cc2ccccc2)NC(=O)CN2CCCN3CCN(CCCN(CC(=O)O)CC3)CC2)C(=O)N[C@@H](Cc2ccc(O)cc2)C(=O)N[C@H](Cc2c[nH]c3ccccc23)C(=O)N[C@@H](CCCCN)C(=O)N[C@@H]([C@@H](C)O)C(=O)N1)C(=O)O [copper-64 labelled]", "tested on": "AR-42J", "assay": "binding", "quantity": "Kd", "result": "1.7 nM"}
{"SMILES": "COc1cc2c(Oc3ccc(NC(=O)C4(C(=O)Nc5ccc(F)cc5)CC4)cc3F)ccnc2cc1OCCCN1CCOCC1", "tested on": "T98G", "quantity": "IC50", "result": "2420 nM"}
{"SMILES": "C[C@H]1COCCN1c1nc(-c2cnc(N)cc2C(F)F)nc(N2CCOCC2)n1", "tested on": "NCI-H82", "quantity": "GI50", "result": "504 nM"}
{"SMILES": "OCc1cn(Cc2cccc(Cl)c2)c2ccccc12", "tested on": "fifty-eight cancer lines", "conditions": "median", "quantity": "GI50", "result": "1620 nM"}
{"SMILES": "Cc1cc(=O)c2cc(-c3ccc(OC(F)(F)F)cc3)ccc2[nH]1", "tested on": "Plasmodium falciparum", "assay": "whole cell extended time", "system": "3D7", "conditions": "72 h", "quantity": "IC50", "result": "480 nM"}
{"SMILES": "C/C(=N\\c1ccc(O)cc1)c1cc2ccccc2n1C", "tested on": "PC-3", "conditions": "concentration not given, added: EGF", "quantity": "cell migration", "result": "decreased"}
{"SMILES": "CC1(C)S[C@@H]2[C@H](NC(=O)[C@H](N)c3ccccc3)C(=O)N2[C@H]1C(=O)O", "tested on": "Klebsiella pneumoniae", "system": "clinical isolate RKI-No_461/16", "quantity": "MIC", "result": "16 µg/mL"}
{"SMILES": "[Ru+2].c1ccc(-c2ccnc3c2ccc2c(-c4ccccc4)ccnc23)cc1.c1ccc(-c2ccnc3c2ccc2c(-c4ccccc4)ccnc23)cc1.c1ccc(-c2ccnc3c2ccc2c(-c4ccccc4)ccnc23)cc1", "tested on": "Jurkat", "conditions": "light irradiation", "quantity": "EC50", "result": "75 nM"}
{"SMILES": "CC(=O)c1c(C)c2cnc(Nc3ccc(N4CCNCC4)cn3)nc2n(C2CCCC2)c1=O", "tested on": "human neutrophils", "conditions": "concentration not given, added: fMLF", "quantity": "intracellular calcium mobilization", "result": "no effect"}
{"SMILES": "CC(C)(C)c1ccc(O)c(CN(Cc2cc(C(C)(C)C)ccc2O)C2CCC(NC(N)=O)CC2)c1 (centres unmarked)", "tested on": "HMC3", "conditions": "concentration not given, added: thrombin", "quantity": "nitric oxide release", "result": "decreased"}
{"SMILES": "N#Cc1cc(NC(=O)[C@H]2c3ccccc3C(=O)N(CC(F)(F)F)[C@@H]2c2cccnc2)ccc1F", "tested on": "trophozoite/schizont-infected erythrocytes", "quantity": "concentration for maximal eryptosis", "result": "~40 nM"}
{"SMILES": "CC(=O)O[C@H]1C(=O)[C@@]2(C)[C@H]([C@H](OC(=O)c3ccccc3)[C@]3(O)C[C@H](OC(=O)[C@H](O)[C@@H](NC(=O)c4ccccc4)c4ccccc4)C(C)=C1C3(C)C)[C@]1(OC(C)=O)CO[C@@H]1C[C@@H]2O", "tested on": "PC-3-TxR", "scale": "baseline: PC-3-TxR over PC-3", "quantity": "resistance factor", "result": "43.4 fold"}
{"SMILES": "Cc1nc2c(c(O)c1Cl)-c1ccc(Oc3cccc(C(F)(F)F)c3)cc1C2=O", "tested on": "Plasmodium falciparum", "assay": "whole cell extended time", "system": "3D7", "conditions": "72 h", "quantity": "IC50", "result": "40 nM"}
{"SMILES": "C=CC(=O)Nc1ccc(OC)c(Nc2cc(-c3[nH]c(SC)nc3-c3cccc(NC(=O)c4c(F)ccc(O)c4CN4C(=O)c5ccccc5C4=O)c3)ccn2)c1", "tested on": "Ba/F3 expressing EGFR L858R", "assay": "cell growth", "quantity": "EC50", "result": "1200 nM"}
{"note": "For quick reference, copied from above:"}
{"SMILES": "C[C@H]1COCCN1c1nc(-c2cnc(N)cc2C(F)F)nc(N2CCOCC2)n1", "tested on": "NCI-H82", "quantity": "GI50", "result": "504 nM"}
{"SMILES": "CC1(C)S[C@@H]2[C@H](NC(=O)[C@H](N)c3ccccc3)C(=O)N2[C@H]1C(=O)O", "tested on": "Klebsiella pneumoniae", "system": "clinical isolate RKI-No_461/16", "quantity": "MIC", "result": "16 µg/mL"}
{"SMILES": "Nc1cc(C(F)(F)F)c(-c2nc(N3CCOCC3)nc(N3CCOCC3)n2)cn1", "tested on": "NCI-H460", "quantity": "GI50", "result": "477 nM"}
